Results gathered from unrelated publications.
Lines come from different studies, so protocols differ. ± marks the error that the study gave.

SMILES | organism | test | test system | conditions | EC90
CN(C)c1ccc(C=NNC(=O)CN2c3c(n[nH]c3-c3cccc(Cl)c3)-c3ccccc3S2(=O)=O)cc1 | HIV-1 | viral replication | PBMC | – | 13.3 µM
CC(=NNC(=O)CN1c2c(-c3ccccc3)n[nH]c2-c2ccccc2S1(=O)=O)c1cc2ccccc2oc1=O | HIV-1 | viral replication | PBMC | – | 85.6 µM
CC(C)(C)NC(=O)N(CCCCCCN1C[C@H](O)[C@@H](O)[C@H](O)[C@H]1CO)C1CCCCC1 | bovine viral diarrhea virus | – | MDBK | 22 h | 16.3 ± 7.8 µM
CCN(CC)Cc1cc(Nc2ccnc3cc(Cl)ccc23)ccc1O | Dengue virus 2 | viral replication | BHK-21 | 96 h | 2.71 ± 0.85 µM
O=C(C1=C(O)c2ccccc2S(=O)(=O)N1)c1cccc(Cl)c1 | HIV-1 | viral replication | PBMC | – | > 100 µM
CC(=NNC(=O)CN1c2c(-c3ccccc3)n[nH]c2-c2ccccc2S1(=O)=O)c1ccc(Cl)s1 | HIV-1 | viral replication | PBMC | – | > 100 µM
COC(=O)CN1C(C(=O)c2cccc(Cl)c2)=C(O)c2ccccc2S1(=O)=O | HIV-1 | viral replication | PBMC | – | 73.7 µM
CC(C)(C)C(=O)N(CCCCCCN1C[C@H](O)[C@@H](O)[C@H](O)[C@H]1CO)C1CCCCC1 | bovine viral diarrhea virus | – | MDBK | 22 h | 16 ± 12 µM
CC(=NNC(=O)CN1c2c(-c3ccccc3)n[nH]c2-c2ccccc2S1(=O)=O)c1ccc(C)s1 | HIV-1 | viral replication | PBMC | – | > 100 µM

A few entries again:
SMILES | organism | test | test system | conditions | EC90
CC(=NNC(=O)CN1c2c(-c3ccccc3)n[nH]c2-c2ccccc2S1(=O)=O)c1ccc(C)s1 | HIV-1 | viral replication | PBMC | – | > 100 µM
